Results collected from several papers.
Numbered parts are unrelated; each lists some results of a single study. Changes are numbered by the printed parent chain.

Study 1
Target: RING finger protein unkempt homolog, zinc fingers 1-6, GST-SBP tag (UNK, Homo sapiens, UniProt Q9C0B0, residues 30-357)
UniProt Q9C0B0, sequence (30-357, looked up): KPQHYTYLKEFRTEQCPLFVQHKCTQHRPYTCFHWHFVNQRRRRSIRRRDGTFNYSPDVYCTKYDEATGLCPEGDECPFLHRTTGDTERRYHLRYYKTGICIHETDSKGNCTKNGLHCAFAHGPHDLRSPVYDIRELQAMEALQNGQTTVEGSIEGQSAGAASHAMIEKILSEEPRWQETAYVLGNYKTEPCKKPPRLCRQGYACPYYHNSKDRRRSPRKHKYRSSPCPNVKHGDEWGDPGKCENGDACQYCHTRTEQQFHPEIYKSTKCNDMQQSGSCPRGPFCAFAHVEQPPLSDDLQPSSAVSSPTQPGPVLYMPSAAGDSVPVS
Method: RNA Bind-n-Seq
Molecule type: RNA
Medium: in vitro
Tested at: not given
Setting: RNA with constant flanks, ends assumed
Baseline: input RNA pool
Direction: higher = stronger binding
Constant ends, left off below: GGGAGUUCUACAGUCCGACGAUC … CAACAGAGGAUUGAGCAUCA
With `GAUGUGGCAGCAAGAAACUCAAAUGUGCAUUUGUAACUGAAUUGAACACUUGUCAUGCUGCCGAUGCCAGCCCAUCAAUAGUAGAGCUUAUGAGACUCAUUUAAACUGUCUUUGGUUUAA` the bound/input enrichment was 0.111 ratio.
For `ACUGAGCCAUUUCCUAUUUUAAAUGGCUUCUACAGUAAAUUAACAACUCAGUUAUUAAACCCGCAGGAUCCUACAAUGAUACAUCUAGUGAAAGUAGAGUUAAUUAACUUAUUUCUAUUU`, the bound/input enrichment was 0.853 ratio.
`UGGCUUCAGGAUGUAGAGGGCCUGCAGGCUGGAGGACGUGUGCCAGUGUUAGACACACUCACCGAACUUGUUACACGAGGCCGAUCUAUCCCCGUACAUCUGAAUUCUUUGCCAAGACUG` has a bound/input enrichment of 0.113 ratio.
For `GAGCCACCAUACAGAGUACCUAGGGAUGAUUGGGAAGAAAAAAGGCACUUUAGAAGAGACCGUUUUGAUGAUCGUGGUCCUAGUCUCAACCCAGUGCUUGAUUAUGACCAUGGAAGUCGU`, the bound/input enrichment was 0.217 ratio.
`CUUAAUGUUUCAUAAGGAGUAAAUUCUGGCAACCAUGUUUCUUGACUUCAUCUACGGUAUACCGAGCAUAAGGAAUGACAGCAAUUUAAUAUGUACAGGUAGAUAAAUAACCAGCAUCUU` gave a bound/input enrichment of 0.226 ratio.
`CCUGAAACUUCCUGCGGUAGCUCCCUCCCUUCAGAGUUACAUCAUUAUCCUGACUCUGUGCCGGUAAAUUUCCGUGAAAUUUUUGUACAAAAAAAAAGGUAAUGAAAGAACGUUGCAAAG` gave a bound/input enrichment of 0.275 ratio.
With `UCCCUAAAGAUAAUUGGAAGACUUCAUUGGAUUGAUAGAGAGAAACUGCGUAAUUUCAUUUCCGCAUGUCAAGAUGAAGAAACGGGGGGAUUUGCAGACAGGCCAGGAGAUAUGGUGGAU` the bound/input enrichment was 0.587 ratio.
For `AGGGUUGAUGUUCUGAAGAACCACUUGGUGAAAGAAGGUCGAGUAGAUGAAGAAAUUGCGCUCCGAAUUAUCAAUGAGGGUGCUGCCAUCCUUCGGAGAGAGAAAACCAUGAUAGAAGUA`, the bound/input enrichment was 1.38 ratio.
For `GAACAGUCCCAGGGCUCCACCACAAAUAGUGACUGGAUGAAAAACCUCAUCUCCCCUGACUCCGGAGUUGUAUUUCUCAAUGUACCUGAAAAUCUCAAAAAUCCAGAGCCAAACAUCAAG`, the bound/input enrichment was 0.335 ratio.
`AAACCUGUAGGGUUUGGAGAAGAGUUUGACGAGGAUGAGCUCAUGGCGGAAUUAGAAGAACCCGAACAGGAGGAACUAGACAAGAAUUUGCUGGAAAUCAGUGGACCCGAAACAGUCCCU` gave a bound/input enrichment of 0.324 ratio.
With `AGAAAGCAAAACUUGGAACGAUUUAAGAAAGGAGACGUAAGAUUCUUGAUUUGCACAGAUGCCGCUGCUAGAGGGAUUGAUAUCCAUGGCGUUCCUUAUGUGAUCAACGUCACCCUGCCU` the bound/input enrichment was 0.113 ratio.

Study 2
Target: Sal-like protein 4, full length isoform A (SALL4, Homo sapiens, UniProt Q9UJQ4, residues 1-1053)
UniProt Q9UJQ4, sequence (whole entry, looked up): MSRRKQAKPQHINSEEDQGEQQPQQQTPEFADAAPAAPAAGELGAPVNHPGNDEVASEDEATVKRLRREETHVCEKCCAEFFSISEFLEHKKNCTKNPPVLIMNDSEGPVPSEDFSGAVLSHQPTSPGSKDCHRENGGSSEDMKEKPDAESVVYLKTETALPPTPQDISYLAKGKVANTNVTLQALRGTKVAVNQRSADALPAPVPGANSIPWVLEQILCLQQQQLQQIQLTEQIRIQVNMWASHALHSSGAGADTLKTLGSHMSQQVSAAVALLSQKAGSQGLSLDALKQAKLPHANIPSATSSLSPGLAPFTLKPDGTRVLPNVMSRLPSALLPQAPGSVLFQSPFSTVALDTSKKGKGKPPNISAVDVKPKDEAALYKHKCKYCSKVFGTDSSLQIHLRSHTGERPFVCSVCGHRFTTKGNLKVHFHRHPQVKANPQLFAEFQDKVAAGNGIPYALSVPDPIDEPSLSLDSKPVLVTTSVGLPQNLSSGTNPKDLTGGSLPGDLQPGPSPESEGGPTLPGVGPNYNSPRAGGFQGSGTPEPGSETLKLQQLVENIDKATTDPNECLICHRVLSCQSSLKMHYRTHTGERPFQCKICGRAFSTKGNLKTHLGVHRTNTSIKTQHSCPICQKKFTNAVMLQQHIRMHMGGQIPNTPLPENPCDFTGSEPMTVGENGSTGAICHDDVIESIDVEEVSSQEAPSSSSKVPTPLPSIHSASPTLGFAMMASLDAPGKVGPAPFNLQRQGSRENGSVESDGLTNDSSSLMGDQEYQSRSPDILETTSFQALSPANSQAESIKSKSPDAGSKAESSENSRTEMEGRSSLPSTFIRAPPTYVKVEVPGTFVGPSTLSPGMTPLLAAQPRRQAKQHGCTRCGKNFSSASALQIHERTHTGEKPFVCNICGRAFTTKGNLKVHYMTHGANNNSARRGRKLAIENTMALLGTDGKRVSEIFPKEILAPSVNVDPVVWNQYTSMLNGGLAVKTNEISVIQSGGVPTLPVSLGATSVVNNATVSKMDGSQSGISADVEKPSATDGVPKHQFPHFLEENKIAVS
Method: universal PBM
Molecule type: double-stranded DNA, one strand shown
Medium: in vitro
Tested at: 600 nM
Setting: 8-mer, flanks averaged, mean of replicates
Direction: higher = stronger binding
The E-score of `GAAAGGGA` is reported as -0.08.
The E-score of `ATCGAATA` is reported as 0.254.
With `ATTCCTCC` the E-score was 0.0762.
`ATTAGTTA` gave an E-score of 0.329.
`AAACCGGA` has an E-score of -0.0644.
`CAGGTACC` gave an E-score of -0.309.
With `AAGACACG` the E-score was 0.0814.
`GCAATCAC` gave an E-score of 0.0135.
The E-score of `AAGAGCAT` is reported as 0.0691.
With `AACTCTTA` the E-score was 0.164.
The E-score of `GCATCCTA` is reported as -0.0491.
The E-score of `TAAATGGA` is reported as 0.182.
With `CGAATAAA` the E-score was 0.193.
`CACTCTCA` gave an E-score of -0.0131.
`ATCCTGAC` has an E-score of -0.0177.
The E-score of `CAGCGTCG` is reported as -0.243.
`ACGTACGA` has an E-score of 0.0157.
`CGCGCGTA` gave an E-score of -0.321.
`CTGGGATC` has an E-score of -0.292.
The E-score of `AACCACTT` is reported as 0.0185.
The E-score of `CGATTTCC` is reported as -0.143.
`GTCTAGCA` gave an E-score of -0.0499.
The E-score of `CTTGCACC` is reported as -0.145.
`CCCCATGC` has an E-score of -0.241.
The E-score of `CATTTGCG` is reported as 0.0669.

Study 3
Target: TAR DNA-binding protein 43, full length, His tag (TARDBP, Homo sapiens, UniProt Q13148, residues 1-414)
Method: RNA Bind-n-Seq
Molecule type: RNA
Medium: in vitro
Tested at: 20 nM
Setting: 6-mer, flanks averaged, single round
Added: 150 mM KCl
Baseline: input library
Direction: higher = stronger binding
For `UAGUUG`, “6-mer enrichment (R)” read 0.774.
`UCGUGA` — result for “6-mer enrichment (R)”: 0.746.
For `AUAACC`, “6-mer enrichment (R)” read 0.623.
`ACCGGA` — result for “6-mer enrichment (R)”: 0.889.
`GUAAUG`: “6-mer enrichment (R)” 0.926.
`UGAGAG` — result for “6-mer enrichment (R)”: 1.61.
For `AUCCCG`, “6-mer enrichment (R)” read 0.61.
`GUCUCA` — result for “6-mer enrichment (R)”: 0.623.
`AUUCCG`: “6-mer enrichment (R)” 0.609.
`CACUAU`: “6-mer enrichment (R)” 0.593.
`GUCCCA`: “6-mer enrichment (R)” 0.669.
For `AUCAAC`, “6-mer enrichment (R)” read 0.578.
Under “6-mer enrichment (R)”, `CGAAGG` is recorded as 1.56.
`GAUGCG` — result for “6-mer enrichment (R)”: 1.56.
`GCACCG` — result for “6-mer enrichment (R)”: 0.972.
`CCUGUG` — result for “6-mer enrichment (R)”: 0.852.

Study 4
Target: CCND2, cyclin fold, Cln2 fusion (human)
Method: yeast growth competition, sequencing
Medium: yeast
Setting: strong parent motif
Baseline: not given
Direction: higher = stronger binding
Starting sequence: PKN2 docking peptide (human); VSAVRKLDFSDTM
Under “normalised enrichment score”, `D11M` is recorded as 2.77.
`T12D` — result for “normalised enrichment score”: 3.81.
For `V4S`, “normalised enrichment score” read 1.9.
`A3R` — result for “normalised enrichment score”: 0.643.
Under “normalised enrichment score”, `V4D` is recorded as 0.168.
For `T12E`, “normalised enrichment score” read 4.06.
`V4M`: “normalised enrichment score” 2.57.
For `T12P`, “normalised enrichment score” read 4.01.
Under “normalised enrichment score”, `S10L` is recorded as 2.58.
`D11Y`: “normalised enrichment score” 2.5.
`F9N`: “normalised enrichment score” 0.177.
For `A3K`, “normalised enrichment score” read 1.04.
`S10E` — result for “normalised enrichment score”: 3.02.
For `A3M`, “normalised enrichment score” read 0.278.
Under “normalised enrichment score”, `F9L` is recorded as 0.217.
`A3S` — result for “normalised enrichment score”: 1.33.
`V4P`: “normalised enrichment score” 0.541.
Under “normalised enrichment score”, `K6M` is recorded as 1.8.
`L7M` — result for “normalised enrichment score”: 1.21.
`L7Q`: “normalised enrichment score” -0.0318.
For `S2L`, “normalised enrichment score” read 1.66.
Under “normalised enrichment score”, `A3W` is recorded as -0.0126.
`D11E` — result for “normalised enrichment score”: 3.57.
`S2Y`: “normalised enrichment score” 1.55.
For `D11I`, “normalised enrichment score” read 3.16.

Study 5
Target: Histone acetyltransferase KAT6A, both winged helices, GST fusion (KAT6A, Homo sapiens, UniProt Q92794, residues 1-181)
Method: protein binding microarray
Molecule type: double-stranded DNA, one strand shown
Medium: in vitro
Tested at: not given
Setting: 8-mer, flanks averaged, mean of 2 arrays, mostly near background
Baseline: not given
Direction: higher = stronger binding
Target sequence (chain): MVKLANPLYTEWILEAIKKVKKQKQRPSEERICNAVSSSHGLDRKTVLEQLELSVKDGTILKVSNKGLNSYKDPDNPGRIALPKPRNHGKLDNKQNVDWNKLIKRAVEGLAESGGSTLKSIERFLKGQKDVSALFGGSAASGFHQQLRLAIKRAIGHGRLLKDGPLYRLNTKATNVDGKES
The E-score of `AGAAGAAA` is reported as -0.118.
With `ACAGAATA` the E-score was -0.00775.
For `CGTCTAAG`, the E-score was 0.0775.
The E-score of `CCCGGGGC` is reported as 0.207.
`CAGGGCAA` gave an E-score of -0.133.
For `ACTCTCAA`, the E-score was -0.254.
The E-score of `CAAATCTC` is reported as -0.0428.
The E-score of `CGTTCTTC` is reported as 0.0916.
For `AGTTCTGA`, the E-score was -0.0878.
The E-score of `CAGCGACG` is reported as 0.175.
With `CAAATGGG` the E-score was -0.247.
For `GGGGCCAC`, the E-score was -0.212.
`CACGGTAG` gave an E-score of 0.0338.
With `TACTCGAA` the E-score was -0.041.
`CGTGCACA` gave an E-score of -0.0947.
With `GCTATAAC` the E-score was -0.0488.
With `CTAACATA` the E-score was -0.162.
`CTGTGCAC` has an E-score of 0.0448.
`GTGCCCCA` gave an E-score of -0.143.
`CAATAGAG` gave an E-score of -0.166.
The E-score of `GTCGTTTA` is reported as 0.127.
The E-score of `CTTAGTGC` is reported as -0.19.
`AAGATGGG` gave an E-score of -0.0751.
For `ATTGGGGG`, the E-score was -0.177.
For `AGATGTAA`, the E-score was -0.0512.
